# Results gathered from unrelated publications.
# Values joined by “and” are separate records of one study, mostly repeats; a detail may differ. ± gives the spread as reported.
# Sequence of UniProt Q9UBS0 (whole entry, looked up): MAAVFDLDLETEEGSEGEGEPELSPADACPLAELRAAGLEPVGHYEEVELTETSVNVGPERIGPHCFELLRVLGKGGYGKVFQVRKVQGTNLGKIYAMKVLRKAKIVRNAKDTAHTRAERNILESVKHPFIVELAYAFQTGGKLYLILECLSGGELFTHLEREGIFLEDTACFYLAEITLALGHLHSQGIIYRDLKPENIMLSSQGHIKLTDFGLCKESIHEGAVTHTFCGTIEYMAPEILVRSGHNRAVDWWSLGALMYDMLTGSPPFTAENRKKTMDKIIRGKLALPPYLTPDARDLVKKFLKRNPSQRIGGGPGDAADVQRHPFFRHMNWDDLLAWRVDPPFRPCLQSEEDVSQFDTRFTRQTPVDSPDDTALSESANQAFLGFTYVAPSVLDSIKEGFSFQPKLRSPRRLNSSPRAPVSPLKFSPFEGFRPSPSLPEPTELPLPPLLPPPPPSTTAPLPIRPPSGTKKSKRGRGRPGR
# Sequence of UniProt Q13639 (whole entry, looked up): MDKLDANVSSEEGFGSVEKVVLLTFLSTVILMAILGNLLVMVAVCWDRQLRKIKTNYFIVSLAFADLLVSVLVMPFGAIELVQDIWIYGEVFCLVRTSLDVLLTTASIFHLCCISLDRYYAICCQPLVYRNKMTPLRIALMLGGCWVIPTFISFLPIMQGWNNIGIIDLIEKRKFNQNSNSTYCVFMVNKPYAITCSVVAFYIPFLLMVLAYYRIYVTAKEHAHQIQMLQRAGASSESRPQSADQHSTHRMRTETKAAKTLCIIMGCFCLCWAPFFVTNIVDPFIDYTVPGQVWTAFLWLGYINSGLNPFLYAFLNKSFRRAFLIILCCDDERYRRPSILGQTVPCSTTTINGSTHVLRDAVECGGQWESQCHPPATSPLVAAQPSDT
Structure (SMILES),tested on,test,test system,setting,how to read,measurement,value
Cc1cc(N2CCC(C#N)(C3(C)CC3)C2=O)cc(C(=O)NCc2cc(F)cc(-c3cnn(C)c3)c2)n1 (racemic),Plasmodium falciparum,parasite growth,compound-resistant Dd2-B2 bulk 1_Bulk_10e5_A2,,,IC50,73 nM
CCCCCCCCCCCCCCC[C@@H](O)[C@H](CO)NC(=O)N[C@@H](CC(C)C)C(=O)N[C@@H](CC(C)C)C(=O)N[C@@H](CCC(N)=O)C(=O)N[C@@H](CC(C)C)C(=O)N[C@H](C(=O)N[C@H](C(=O)N[C@@H](Cc1c[nH]c2ccccc12)C(=O)NCC(=O)N[C@H](C(=O)N[C@@H](CCCCN)C(=O)N[C@@H](CCC(N)=O)C(=O)N[C@@H](CC(C)C)C(=O)N[C@@H](CCC(N)=O)C(=O)N[C@@H](C)C(=O)N[C@@H](CCCNC(=N)N)C(=O)N[C@H](C(=O)N[C@@H](CC(C)C)C(=O)N[C@@H](CCCCN)C(N)=O)[C@@H](C)CC)[C@@H](C)CC)C(C)C)[C@@H](C)O,HIV-1 HXB2,"viral infection, luciferase reporter",TZM-bl,,,IC50,118 ± 18 nM
C=CC(=O)N1CC/C(=C\c2ccc(F)c([N+](=O)[O-])c2)C(=O)/C(=C/c2ccc(F)c([N+](=O)[O-])c2)C1,human alphaherpesvirus 1,,"K26 GFP, 3D adult human skin submerged",48 h,,IC50,> 10000 nM
CN(C)[C@H]1C[C@@]23CC[C@@]4(O2)C(=CC[C@]2(C)[C@@H](c5ccc6ccncc6c5)CC[C@H]24)C=C3[C@@H](O)[C@@H]1O,"RPS6KB2 (Homo sapiens, UniProt Q9UBS0)","ATP probe labelling, inhibitor, KiNativ profiling",,1 µM,,inhibition,-7.3%
CC(C)(C)C(=O)OCOP(=O)(OCOC(=O)C(C)(C)C)C1CCCN(O)C1=O (stereo not drawn),OVCAR-4,,,,,log GI50,-6.29 log M
Oc1c(Br)cc(Br)c2nc3cc(F)c(F)cc3nc12,Acinetobacter baumannii,microbial growth,19606,,,IC50,> 100000 nM
COC(=O)C1=CO[C@@H](C)[C@@H]2Cn3ccc4c5ccccc5nc-4c3C[C@H]12,Plasmodium falciparum,growth,"C2B, atovaquone-resistant",72 h,,IC50,113 ± 29 nM
CC(=O)O[C@H]1C[C@H](O[C@H]2[C@@H](O)C[C@H](O[C@H]3[C@@H](O)C[C@H](O[C@H]4CC[C@@]5(C)[C@H](CC[C@@H]6[C@@H]5C[C@@H](O)[C@]5(C)[C@@H](C7=CC(=O)OC7)CC[C@]65O)C4)O[C@@H]3C)O[C@@H]2C)O[C@H](C)[C@H]1O[C@@H]1O[C@H](CO)[C@@H](O)[C@H](O)[C@H]1O,human alphaherpesvirus 1,,"K26 GFP, 3D adult human skin air-liquid interface",48 h,,IC50,140 nM
NCC(=O)NCC(=O)N[C@@H](Cc1c[nH]cn1)C(=O)O,hepatitis C virus,"viral replication, luciferase reporter",Huh-7 ET replicon,72 h,,IC50,> 100000 nM
CC[C@H](C)[C@H](NC(=O)[C@H](Cc1c[nH]c2ccccc12)NC(=O)c1ccccc1)C(=O)N[C@@H](CCCNC(=N)N)C(=O)N[C@@H](Cc1ccc(O)cc1)C(=O)N[C@@H](CCCCN)C(=O)N[C@@H](Cc1c[nH]c2ccccc12)C(=O)N1CCC[C@@H]1C(=O)N[C@@H](CCCNC(=N)N)C(=O)N[C@@H](CCCCN)C(=O)N[C@H](C(=O)N[C@H](C(=O)N[C@@H](CCCNC(=N)N)C(=O)N[C@@H](Cc1ccc(O)cc1)C(=O)N[C@@H](Cc1c[nH]c2ccccc12)C(=O)N[C@H](C(=O)NCC(=O)N1CCC[C@H]1C(N)=O)[C@@H](C)O)C(C)C)C(C)C,Corynebacterium glutamicum,growth,ATCC 13032,,,IC50,10 nM
COc1ccccc1-c1n[nH]c2nc(NC3CCN(C(=O)Cc4ccc(F)cc4F)CC3)ncc12,,"bead binding, competition bead pull-down, refers to: LINJ.35.1150",Leishmania donovani extract,10 µM,reference: vehicle,relative abundance,0.95
NCCC[C@@H]1NC(=O)[C@@H](CCCN)NC(=O)[C@H](Cc2ccccc2)NC(=O)[C@@H](Cc2cccc(F)c2)NC(=O)[C@H](Cc2ccccc2)NC(=O)[C@@H](CCCN)NC1=O,Balamuthia mandrillaris,"parasite growth, ATP luminescence",,,,IC50,14100 nM
O=C(Oc1cc(OC(=O)c2cc(O)c(O)c(O)c2)c2ccccc2c1)c1cc(O)c(O)c(O)c1,human alphaherpesvirus 2,"viral replication, RT-qPCR",acyclovir-resistant,,,IC50,1420 ± 220 nM
CC[C@H](C)[C@H](NC(=O)[C@H](Cc1c[nH]c2ccccc12)NC(=O)c1ccccc1)C(=O)N[C@H](C(=O)N[C@@H](Cc1ccc(O)cc1)C(=O)N[C@@H](CCCCN)C(=O)N[C@@H](Cc1c[nH]c2ccccc12)C(=O)N1CCC[C@@H]1C(=O)N[C@@H](CCCNC(=N)N)C(=O)N[C@@H](CCCCN)C(=O)N[C@@H](CCCCN)C(=O)N[C@H](C(=O)N[C@@H](CCCNC(=N)N)C(=O)N[C@@H](Cc1ccc(O)cc1)C(=O)N[C@@H](Cc1c[nH]c2ccccc12)C(=O)N[C@H](C(=O)NCC(=O)N1CCC[C@H]1C(N)=O)[C@@H](C)O)C(C)C)C(C)C,Corynebacterium glutamicum,growth,ATCC 13032,,,IC50,130 nM
CC[C@H](C)[C@H](NC(=O)[C@H](CC(C)C)NC(=O)[C@H](CO)NC(=O)[C@H](Cc1c[nH]cn1)NC(=O)[C@@H](NC(=O)[C@H](CC(C)C)NC(=O)[C@H](CO)NC(=O)[C@@H](NC(=O)[C@@H](N)Cc1ccc(O)cc1)[C@@H](C)O)[C@@H](C)CC)C(=O)N[C@@H](CCC(=O)O)C(=O)N[C@@H](CCC(=O)O)C(=O)N[C@@H](CO)C(=O)N[C@@H](CCC(N)=O)C(=O)N[C@@H](CC(N)=O)C(=O)N[C@@H](CCC(N)=O)C(=O)N[C@@H](CCC(N)=O)C(=O)N[C@@H](CCC(=O)O)C(=O)N[C@@H](CCCCN)C(=O)N[C@@H](CC(N)=O)C(=O)N[C@@H](CCCCN)C(N)=O,HIV-1 HXB2,"viral infection, luciferase reporter",TZM-bl,,,IC50,2210 ± 507 nM
CC[C@H](C)[C@H](NC(=O)[C@H](Cc1c[nH]c2ccccc12)NC(=O)c1ccccc1)C(=O)N[C@@H](CCCNC(=N)N)C(=O)N[C@@H](Cc1ccc(O)cc1)C(=O)N[C@@H](CCCCN)C(=O)N[C@@H](Cc1c[nH]c2ccccc12)C(=O)N1CCC[C@@H]1C(=O)N[C@@H](CCCNC(=N)N)C(=O)N[C@@H](CCCCN)C(=O)N[C@@H](CCCCN)C(=O)N[C@H](C(=O)N[C@@H](CCCNC(=N)N)C(=O)N[C@@H](Cc1ccc(O)cc1)C(=O)N[C@@H](Cc1c[nH]c2ccccc12)C(=O)N[C@H](C(=O)NCC(=O)N1CCC[C@H]1C(N)=O)[C@@H](C)O)C(C)C,Corynebacterium glutamicum,growth,ATCC 13032,,,IC50,100 nM
CCCCCCCCCCCCCCC[C@@H](O)[C@H](CO)NC(=O)NCCCC[C@H](NC(=O)[C@H](CC(C)C)NC(=O)[C@@H](NC(=O)[C@H](CCCNC(=N)N)NC(=O)[C@H](C)NC(=O)[C@H](CCC(N)=O)NC(=O)[C@H](CC(C)C)NC(=O)[C@H](CCC(N)=O)NC(=O)[C@H](CCCCN)NC(=O)[C@@H](NC(=O)CNC(=O)[C@H](Cc1c[nH]c2ccccc12)NC(=O)[C@@H](NC(=O)[C@@H](NC(=O)[C@H](CC(C)C)NC(=O)[C@H](CCC(N)=O)NC(=O)[C@H](CC(C)C)NC(=O)[C@@H](N)CC(C)C)[C@@H](C)O)C(C)C)[C@@H](C)CC)[C@@H](C)CC)C(N)=O,HIV-1 HXB2,"viral infection, luciferase reporter",TZM-bl,,,IC50,291 ± 102 nM
CC[C@H](C)[C@H](NC(=O)[C@H](Cc1c[nH]c2ccccc12)NC(=O)c1ccccc1)C(=O)N[C@@H](CCCNC(=N)N)C(=O)N[C@@H](Cc1ccc(O)cc1)C(=O)N[C@@H](CCCCN)C(=O)N[C@@H](Cc1c[nH]c2ccccc12)C(=O)N[C@H](CCCNC(=N)N)C(=O)N[C@@H](CCCNC(=N)N)C(=O)N[C@@H](CCCCN)C(=O)N[C@@H](CCCCN)C(=O)N[C@H](C(=O)N[C@@H](CCCNC(=N)N)C(=O)N[C@@H](Cc1ccc(O)cc1)C(=O)N[C@@H](Cc1c[nH]c2ccccc12)C(=O)N[C@H](C(=O)NCC(=O)N1CCC[C@H]1C(N)=O)[C@@H](C)O)C(C)C,Corynebacterium glutamicum,growth,ATCC 13032,,,IC50,60 nM
O=C1NC2(CC2)COc2ncc(F)cc2[C@H]2COCCN2c2ccn3ncc1c3n2,,,"Sprague-Dawley rat, female, serum","oral, 2.5 mg/kg/day, end of recovery, 4-week subacute toxicity",,serum total protein,63.9 ± 7 g/L
Cc1cc(C(=O)Nc2nc3cccc(C)c3n2[C@H]2CCCCN(C(=O)/C=C/CN(C)C)C2)ccn1,Trypanosoma brucei brucei,,2T1 CLK1 overexpressing,"0.3125 µM, DMSO pretreated",reference: maximum,survival,64.2% and 66% and 62.5% and 57.4%
CC(C)C[C@H](NC(=O)[C@H](CCCNC(=N)N)NC(=O)[C@H](CCCNC(=N)N)NC(=O)[C@H](C)NC(=O)[C@H](CCC(N)=O)NC(=O)[C@H](CC(N)=O)NC(=O)[C@H](CCC(N)=O)NC(=O)[C@H](CCCCN)NC(=O)[C@H](CO)NC(=O)CNC(=O)[C@H](Cc1c[nH]c2ccccc12)NC(=O)[C@@H](NC(=O)[C@H](CO)NC(=O)[C@H](CC(C)C)NC(=O)[C@H](CCC(N)=O)NC(=O)[C@H](CCC(=O)O)NC(=O)[C@@H](N)CC(C)C)C(C)C)C(N)=O,HIV-1 HXB2,"viral infection, luciferase reporter",TZM-bl,,,IC50,> 4000 nM
COc1ccccc1-c1n[nH]c2nc(N[C@H]3CC[C@H](NS(=O)(=O)CC(C)C)CC3)ncc12,,"bead binding, competition bead pull-down, refers to: LMJF.31.1130",Leishmania donovani extract,10 µM,reference: vehicle,relative abundance,1.11
CS(C)(=O)=Nc1ccc(-c2ccc(-c3nc4cc(O[C@@H]5CO[C@H]6[C@@H]5OC[C@H]6O)[nH]c4cc3F)cc2)cc1,"5-hydroxytryptamine receptor 4, isoform 5-HT4e (HTR4, Homo sapiens, UniProt Q13639)","agonist response, antagonist",,10 µM,reference: control agonist response,inhibition,-8%
CC[C@H](C)[C@H](NC(=O)[C@H](CC(C)C)NC(=O)[C@H](CC(C)C)NC(=O)[C@H](CC(=O)O)NC(=O)[C@@H](NC(=O)[C@H](CCC(=O)O)NC(=O)[C@H](CCCCN)NC(=O)[C@H](Cc1ccc(O)cc1)NC(=O)[C@H](CCCCN)NC(=O)[C@H](Cc1c[nH]cn1)NC(=O)CNC(=O)CN)[C@@H](C)O)C(=O)N[C@@H](CC(C)C)C(=O)N[C@@H](Cc1ccccc1)C(=O)N[C@@H](CCCCN)C(=O)N[C@@H](CC(=O)O)C(=O)N[C@@H](CC(=O)O)C(=O)N[C@@H](Cc1ccc(O)cc1)C(=O)N[C@@H](Cc1ccccc1)C(=O)N[C@@H](C)C(=O)N[C@@H](CCCCN)C(=O)N[C@@H](CCCCN)C(=O)N[C@@H](CC(N)=O)C(=O)N[C@@H](CCC(=O)O)C(=O)N[C@@H](CCC(=O)O)C(=O)N[C@@H](CCCNC(=N)N)C(=O)N[C@@H](CCCCN)C(N)=O,hepatitis C virus,"viral replication, luciferase reporter",Huh-7 ET replicon,72 h,,IC50,750 nM

# Excerpt of the above:
Structure (SMILES),tested on,test,test system,setting,how to read,measurement,value
Cc1cc(C(=O)Nc2nc3cccc(C)c3n2[C@H]2CCCCN(C(=O)/C=C/CN(C)C)C2)ccn1,Trypanosoma brucei brucei,,2T1 CLK1 overexpressing,"0.3125 µM, DMSO pretreated",reference: maximum,survival,64.2% and 66% and 62.5% and 57.4%
CC(C)C[C@H](NC(=O)[C@H](CCCNC(=N)N)NC(=O)[C@H](CCCNC(=N)N)NC(=O)[C@H](C)NC(=O)[C@H](CCC(N)=O)NC(=O)[C@H](CC(N)=O)NC(=O)[C@H](CCC(N)=O)NC(=O)[C@H](CCCCN)NC(=O)[C@H](CO)NC(=O)CNC(=O)[C@H](Cc1c[nH]c2ccccc12)NC(=O)[C@@H](NC(=O)[C@H](CO)NC(=O)[C@H](CC(C)C)NC(=O)[C@H](CCC(N)=O)NC(=O)[C@H](CCC(=O)O)NC(=O)[C@@H](N)CC(C)C)C(C)C)C(N)=O,HIV-1 HXB2,"viral infection, luciferase reporter",TZM-bl,,,IC50,> 4000 nM
COc1ccccc1-c1n[nH]c2nc(N[C@H]3CC[C@H](NS(=O)(=O)CC(C)C)CC3)ncc12,,"bead binding, competition bead pull-down, refers to: LMJF.31.1130",Leishmania donovani extract,10 µM,reference: vehicle,relative abundance,1.11
